Measurements from different studies.
A part holds a random share of what one study measured.

Set 1 — method: protein-binding microarray; molecule type: double-stranded DNA, one strand shown; matrix: in vitro; tested at: 250 nM; notes: 60-bp whole probe; added: salmon DNA 0.4 mg/ml; reference: random background probes; reading: higher = stronger binding; constant ends, left off below: GCCTAGCAC … GTCTTGATTCGCTTGACGCTGCTG
Target: Interferon regulatory factor 5, full length, phosphomimetic (IRF5, Homo sapiens, UniProt Q13568-2, residues 1-514, K96S/S451D/S453D/S456D/S462D)
| Sequence | log fluorescence [z-score] |
| --- | --- |
| CCCTAGGGGCTCTCAGAGATGTGCTAG | -0.859 |
| TTAGTTATCGACTATCGGTTAGTGCTA | 7.91 |
| GACGAACTGAGACAGGAGACGTGCTAG | -0.356 |
| TTGGATATCAGTTTCGATTAGTGCTAG | 9.79 |
| CAGCACATGCATCTCCCACAGTGCTAG | -0.457 |
| GACGGTCTCCTTATCCTAACGTGCTAG | -0.0973 |
| TTCGATATCGGGTTTCGATTAGTGCTA | 8.25 |
| TCAAGAATGGGGTTTGCAACTGTGCTA | 0.0297 |
| GACGGTTTCGGCCTGGGGACGTGCTAG | 6.49 |

Set 2 — method: universal PBM; molecule type: double-stranded DNA, one strand shown; matrix: in vitro; tested at: 600 nM; reading: higher = stronger binding
Target: Sal-like protein 4, full length isoform A (SALL4, Homo sapiens, UniProt Q9UJQ4, residues 1-1053)
Chain of UniProt Q9UJQ4 (whole entry, looked up): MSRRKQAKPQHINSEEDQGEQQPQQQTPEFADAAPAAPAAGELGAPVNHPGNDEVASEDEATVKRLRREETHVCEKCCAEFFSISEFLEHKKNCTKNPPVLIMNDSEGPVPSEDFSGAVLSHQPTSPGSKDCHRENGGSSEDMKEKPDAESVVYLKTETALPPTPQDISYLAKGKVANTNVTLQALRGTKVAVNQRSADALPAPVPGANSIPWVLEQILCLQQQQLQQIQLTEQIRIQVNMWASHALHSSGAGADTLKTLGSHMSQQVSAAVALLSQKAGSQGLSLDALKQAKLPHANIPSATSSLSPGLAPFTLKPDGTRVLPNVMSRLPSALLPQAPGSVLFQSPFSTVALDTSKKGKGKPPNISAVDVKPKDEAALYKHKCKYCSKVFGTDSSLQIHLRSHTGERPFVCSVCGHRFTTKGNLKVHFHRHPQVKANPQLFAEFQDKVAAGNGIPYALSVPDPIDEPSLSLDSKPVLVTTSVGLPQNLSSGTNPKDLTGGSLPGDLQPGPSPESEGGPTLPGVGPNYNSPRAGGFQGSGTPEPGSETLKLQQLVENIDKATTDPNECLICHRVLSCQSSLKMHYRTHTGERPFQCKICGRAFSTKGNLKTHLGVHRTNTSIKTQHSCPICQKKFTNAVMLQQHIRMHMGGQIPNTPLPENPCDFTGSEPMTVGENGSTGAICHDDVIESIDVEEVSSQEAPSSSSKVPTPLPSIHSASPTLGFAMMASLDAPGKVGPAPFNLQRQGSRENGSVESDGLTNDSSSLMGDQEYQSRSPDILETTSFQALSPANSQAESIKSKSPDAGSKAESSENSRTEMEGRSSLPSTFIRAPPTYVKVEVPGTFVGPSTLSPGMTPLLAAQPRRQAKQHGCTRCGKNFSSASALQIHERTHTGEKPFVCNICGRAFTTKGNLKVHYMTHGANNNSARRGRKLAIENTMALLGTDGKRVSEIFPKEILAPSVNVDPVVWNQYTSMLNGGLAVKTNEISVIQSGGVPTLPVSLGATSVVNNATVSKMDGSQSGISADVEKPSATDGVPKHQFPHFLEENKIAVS
Notes: 8-mer, flanks averaged, mean of replicates
| Sequence | E-score |
| --- | --- |
| TACTTTAA | 0.277 |
| AGCGATAC | -0.00365 |
| CTAGCAGA | -0.1 |
| GGACTCCA | -0.223 |
| AATCGGAC | -0.0598 |
| TAGCTTGA | -0.0886 |
| CGATCGCC | -0.147 |

Set 3 — method: aptamer microarray, sandwich; molecule type: DNA with 2'F-ANA; matrix: in vitro; tested at: 200 nM; added: Cy3 exosite-II aptamer, 400 nM; reading: higher = stronger binding; sequence: GGTTGGTGTGGTTGG
Target: Prothrombin, mature alpha-thrombin (F2, Homo sapiens, UniProt P00734)
Notes: whole 15-mer aptamer, many near background
| Modification | mean fluorescence intensity [a.u.] |
| --- | --- |
| 2'F-ANA at 1 2 4 5 6 8 9 11 13 15 | 52 |
| 2'F-ANA at 3 5 8 12 13 14 15 | 66.3 |
| 2'F-ANA at 5 8 9 13 14 15 | 48.2 |
| 2'F-ANA at 2 5 8 10 11 14 15 | 96.7 |
| 2'F-ANA at 5 6 8 9 11 13 | 188 |
| 2'F-ANA at 1 2 3 4 5 6 8 9 12 14 15 | 75.6 |
| 2'F-ANA at 1 2 3 4 5 6 7 10 15 | 48.4 |
| 2'F-ANA at 1 3 7 8 9 10 12 14 | 67.1 |
| 2'F-ANA at 1 4 5 7 12 13 14 | 44.8 |
| 2'F-ANA at 1 2 5 6 10 12 15 | 53.9 |
| 2'F-ANA at 2 3 4 5 8 9 10 12 | 59.7 |
| 2'F-ANA at 1 2 3 10 12 13 14 | 75.5 |

Further values, each from its own experiment
| Substance | target | test | test system | conditions | scale | quantity | value |
| --- | --- | --- | --- | --- | --- | --- | --- |
| PhoQ, residues 284 288 289 292 302 303 SNGLAW | PhoP, residues 12 14 15 18 19 GQALL (Escherichia coli, UniProt P23836) | Sort-seq, item: YFP reporter | E. coli | PhoQ-PhoP variant library, added: 10 µM Mg2+ | reference: high Mg2+ state, higher = stronger signaling | fold induction | 9.04 |
